Measured values pooled from the literature.
Numbered parts are unrelated; each lists some results of a single study. Changes are numbered by the printed parent chain.

Series 1 — target: CCNE2, cyclin fold, Cln2 fusion (human); method: yeast growth competition, sequencing; sample: yeast; notes: strong parent motif; relative to: not given; reading: higher = stronger binding; quantity: normalised enrichment score
Starting sequence: RBL1 docking peptide (human); GSAKRRLFGEDPP; partner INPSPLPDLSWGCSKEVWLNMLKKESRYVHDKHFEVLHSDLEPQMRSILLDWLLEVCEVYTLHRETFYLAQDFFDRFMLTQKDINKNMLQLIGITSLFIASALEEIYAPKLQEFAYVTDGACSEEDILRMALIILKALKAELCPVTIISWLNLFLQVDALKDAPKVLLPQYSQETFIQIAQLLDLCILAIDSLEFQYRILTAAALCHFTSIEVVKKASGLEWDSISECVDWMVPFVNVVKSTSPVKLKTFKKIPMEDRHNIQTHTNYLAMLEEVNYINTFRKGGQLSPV
GSWKRRLFGEDPP [A3W]: 2.55
GSAKRRLFGECPP [D11C]: 3.76
GSAKRRLFHEDPP [G9H]: 5.11
GSAKRRLFGEDPS [P13S]: 4.35
ESAKRRLFGEDPP [G1E]: 4.24
GSAKRRLPGEDPP [F8P]: 0.479
GTAKRRLFGEDPP [S2T]: 4.21
GSAKRRLFGEDNP [P12N]: 3.69
GSAKRRLFGEDPQ [P13Q]: 3.75
GSAKWRLFGEDPP [R5W]: -0.312
GSAKRELFGEDPP [R6E]: 0.852
GSAKHRLFGEDPP [R5H]: 0.78
GSALRRLFGEDPP [K4L]: 0.359
GSAKRILFGEDPP [R6I]: 2.72

Series 2 — method: DHFR PCA, deep sequencing; sample: yeast; with: (+)-ABA 58 µM; relative to: wild-type fitted maximum; reading: higher = stronger binding; quantity: relative binding score
Target: ABI1, truncated, D143A, DHFR fusion (Arabidopsis thaliana)
Notes: methotrexate growth selection, single substitutions
Starting sequence: PYL1, truncated, DHFR fusion (Arabidopsis thaliana); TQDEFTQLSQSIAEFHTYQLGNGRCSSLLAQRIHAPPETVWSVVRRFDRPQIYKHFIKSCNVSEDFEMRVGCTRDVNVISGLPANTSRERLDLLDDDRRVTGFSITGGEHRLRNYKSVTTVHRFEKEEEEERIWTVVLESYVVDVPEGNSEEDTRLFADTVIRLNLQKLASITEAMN
E127A: 88.8%
R98Y: 55.4%
Y115M: 23.7%
E109C: 74.2%
E14V: 65.3%
S9H: 77.4%
C60W: 4.85%
L91I: 12.8%
R45S: 61.5%
G21V: 87.6%
Y115G: 7.63%
S117H: 2.23%
L164Y: 75.8%

Series 3 — method: protein binding microarray; form: double-stranded DNA, one strand shown; sample: in vitro; tested at: not given; relative to: not given; reading: higher = stronger binding; quantity: E-score
Target: Histone acetyltransferase KAT6A, winged helix 2, GST fusion (KAT6A, Homo sapiens, UniProt Q92794, residues 85-181)
Notes: 8-mer, flanks averaged, mean of 2 arrays, mostly near background
Residues (chain): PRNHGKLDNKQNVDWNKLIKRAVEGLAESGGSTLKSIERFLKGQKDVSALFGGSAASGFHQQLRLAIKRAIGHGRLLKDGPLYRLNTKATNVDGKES
GCTATTAA: 0.155
AGGCATAC: -0.0393
CAGATTAG: -0.145
AAGCACAA: 0.131
GCTCGGCC: 0.167
CTGTTATC: -0.205
CACCGACC: 0.0924
AAGACGAA: 0.135
GGTAAGTA: -0.165
ACCGACAC: -0.00784
TCTCGAAA: 0.186
AGTTAGTA: -0.0772
ACATCGTG: -0.00827

Series 4 — target: UBE2G2 UBC core domain (UniProt P60604); method: yeast two-hybrid; sample: yeast; notes: mostly zero background; relative to: not given; reading: higher = stronger interaction; quantity: lacZ reporter activity
B1: TRIM40 RING domain (UniProt Q6P9F5); chain LQKDNQEEGVCPICQESLKEAVSTNCGHLFCRVCLTQHVEKASASGVFCCPLCRKPCSEEVLG
B2: TRIM5 RING domain (UniProt Q9C035); chain LREVKLSPEGQKVDHCARHGEKLLLFCQEDGKVICWLCERSQEHRGHHTFLTEEVAREYQVKL
B3: TRIM5 RING domain (UniProt Q9C035); chain ILVNVKEEVTCPICLELLTQPLSLDCGHSFCQACLTANHKKSMLDKGESSCPVCRISYQPENIRP
B4: RNF38 RING domain (UniProt Q9H0F5); chain PNNHQSEQTLCVVCMCDFESRQLLRVLPCNHEFHAKCVDKWLKANRTCPICRADASEVHRDS
B5: TRIM13 RING domain (UniProt O60858); chain MELLEEDLTCPICCSLFDDPRVLPCSHNFCKKCLEGILEGSVRNSLWRPAPFKCPTCRKETSATGINS
Construct (chain): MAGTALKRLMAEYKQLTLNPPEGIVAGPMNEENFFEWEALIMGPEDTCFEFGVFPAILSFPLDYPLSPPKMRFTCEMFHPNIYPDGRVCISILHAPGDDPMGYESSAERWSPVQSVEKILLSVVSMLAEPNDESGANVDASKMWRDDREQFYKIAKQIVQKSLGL
B1 (TRIM40 RING domain): 0
B2 (TRIM5 RING domain): 0
B3 (TRIM5 RING domain): 0
PAELEVQASECVVCLEREAQMIFLNCGHVCCCQQCCQPLRTCPLCRQDIAQRLRIY (LRSAM1 RING domain (UniProt Q6UWE0)): 0
GAAPGPEAAECLVCSELALLVLFSPCQHRTVCEECARRMKKCIRCQVVVSKKLRPD (MIB2 RING domain (UniProt Q96AX9)): 0
B4 (RNF38 RING domain): 0
B5 (TRIM13 RING domain): 0

Excerpt of the above (series 2):
S9H: 77.4%
C60W: 4.85%
L91I: 12.8%
R45S: 61.5%
G21V: 87.6%
